Experimental data from different studies.
Each line is one published result; not all experiments were run side by side. Numbers after ± are the reported error.

COC(=O)C1CN1S(=O)(=O)c1ccc2c(N(C)C)cccc2c1 (stereo not shown) has a degradation of 16% (ring opening; aqueous Tris-HCl buffer; 3.5 h, pH 7.4, without DTT).
The degradation of COc1c2c(cc3oc(CO)cc(=O)c13)O[C@H](C(C)(C)O)C2 is reported as under 20% (rat liver homogenate 30%; 15 min, 37 °C).
CC(=O)Oc1ccccc1C(=O)[O][Pt]([NH2])([NH2])([Cl])([Cl])[O]C(=O)C(Cl)Cl gave a degradation of over 50% (HPLC; phosphate buffer; 1 day, pH 7, 37 °C).
With NC(=O)C[C@H](N)C(=O)N[C@@H](Cc1ccccc1)C(=O)N[C@@H](Cc1ccccc1)C(=O)O the degradation was 15.4% (HPLC; solution; 1 mg/mL, 60 days, 25 °C).
CC1=C(C=O)C(C)(C)CC=C1 has a degradation of 54% (simulated gastric fluid; 500 µM, 2 h, pH 1.2, 37 °C).
C#CCN(CCCNC(=O)CCCCC[N+]1=C(/C=C/C2=C(Cl)C(=C/C=C3\N(CCCCCC(=O)[O-])c4ccccc4C3(C)C)/CCC2)C(C)(C)c2ccccc21)CCCOc1ccc(Cl)cc1Cl gave a degradation half-life of 660 min (mouse plasma; low concentration).
The degradation of C[C@H](NC(=O)[C@H](Cc1cnc[nH]1)NC(=O)[C@H](CO)NC(=O)[C@@H](N)CC(=O)O)C(=O)N[C@@H](CCCCN)C(=O)N[C@@H](CCCNC(=N)N)C(=O)N[C@@H](Cc1cnc[nH]1)C(=O)N[C@@H](Cc1cnc[nH]1)C(=O)NCC(=O)N[C@@H](Cc1ccc(O)cc1)C(=O)N[C@@H](CCCCN)C(=O)N[C@@H](CCCNC(=N)N)C(=O)N[C@@H](CCCCN)C(=O)N[C@@H](Cc1ccccc1)C(=O)N[C@@H](Cc1cnc[nH]1)C(=O)N[C@@H](CCC(=O)O)C(=O)N[C@@H](CCCCN)C(=O)N[C@@H](Cc1cnc[nH]1)C(=O)N[C@@H](Cc1cnc[nH]1)C(=O)N[C@@H](CO)C(=O)N[C@@H](Cc1cnc[nH]1)C(=O)N[C@@H](CCCNC(=N)N)C(=O)NCC(=O)N[C@@H](Cc1ccc(O)cc1)C(=O)O is reported as about 89.1% (PAGE band density; whole saliva supernatant G2 and G3, diluted 1:10; 100 µg/mL, 48 h, 37 °C).
For C[C@@H](O)[C@H](NC(=O)OP(=O)(O)OC[C@H]1O[C@@H](n2cnc3c(N)ncnc32)[C@H](O)[C@@H]1O)C(=O)O, “degradation per freeze-thaw” read about 10% (potassium phosphate buffer; time not given, pH 6, -80 °C).
With CC(C)C[C@H](NC(=O)[C@@H](NC(=O)[C@H](CCCCN)NC(=O)[C@@H](Cc1c[nH]c2ccccc12)NC(=O)[C@H](Cc1ccccc1)NC(=O)[C@H](CSCC(N)=O)NC(=O)CNC(=O)[C@@H](N)Cc1ccccc1)[C@@H](C)O)C(=O)O the degradation time was at most 2 h (HPLC; human serum).
For CCCCCCCCCCCCCCOc1c(O)cc(C(=O)O[C@@H]2Cc3c(O)cc(O)cc3O[C@@H]2c2cc(O)c(O)c(O)c2)cc1O, the degradation was 27.8 ± 1.43% (UV-Vis; PBS; 0.02 mg/mL, 24 h, pH 7.4).

For quick reference, copied from above:
CC1=C(C=O)C(C)(C)CC=C1 has a degradation of 54% (simulated gastric fluid; 500 µM, 2 h, pH 1.2, 37 °C).
